Experimental data gathered from unrelated publications.
Each numbered part is a random draw from the data of one study; scales do not carry over between parts. Substitutions count along the parent as printed.
Chain of UniProt Q9Y3S1 (whole entry, looked up): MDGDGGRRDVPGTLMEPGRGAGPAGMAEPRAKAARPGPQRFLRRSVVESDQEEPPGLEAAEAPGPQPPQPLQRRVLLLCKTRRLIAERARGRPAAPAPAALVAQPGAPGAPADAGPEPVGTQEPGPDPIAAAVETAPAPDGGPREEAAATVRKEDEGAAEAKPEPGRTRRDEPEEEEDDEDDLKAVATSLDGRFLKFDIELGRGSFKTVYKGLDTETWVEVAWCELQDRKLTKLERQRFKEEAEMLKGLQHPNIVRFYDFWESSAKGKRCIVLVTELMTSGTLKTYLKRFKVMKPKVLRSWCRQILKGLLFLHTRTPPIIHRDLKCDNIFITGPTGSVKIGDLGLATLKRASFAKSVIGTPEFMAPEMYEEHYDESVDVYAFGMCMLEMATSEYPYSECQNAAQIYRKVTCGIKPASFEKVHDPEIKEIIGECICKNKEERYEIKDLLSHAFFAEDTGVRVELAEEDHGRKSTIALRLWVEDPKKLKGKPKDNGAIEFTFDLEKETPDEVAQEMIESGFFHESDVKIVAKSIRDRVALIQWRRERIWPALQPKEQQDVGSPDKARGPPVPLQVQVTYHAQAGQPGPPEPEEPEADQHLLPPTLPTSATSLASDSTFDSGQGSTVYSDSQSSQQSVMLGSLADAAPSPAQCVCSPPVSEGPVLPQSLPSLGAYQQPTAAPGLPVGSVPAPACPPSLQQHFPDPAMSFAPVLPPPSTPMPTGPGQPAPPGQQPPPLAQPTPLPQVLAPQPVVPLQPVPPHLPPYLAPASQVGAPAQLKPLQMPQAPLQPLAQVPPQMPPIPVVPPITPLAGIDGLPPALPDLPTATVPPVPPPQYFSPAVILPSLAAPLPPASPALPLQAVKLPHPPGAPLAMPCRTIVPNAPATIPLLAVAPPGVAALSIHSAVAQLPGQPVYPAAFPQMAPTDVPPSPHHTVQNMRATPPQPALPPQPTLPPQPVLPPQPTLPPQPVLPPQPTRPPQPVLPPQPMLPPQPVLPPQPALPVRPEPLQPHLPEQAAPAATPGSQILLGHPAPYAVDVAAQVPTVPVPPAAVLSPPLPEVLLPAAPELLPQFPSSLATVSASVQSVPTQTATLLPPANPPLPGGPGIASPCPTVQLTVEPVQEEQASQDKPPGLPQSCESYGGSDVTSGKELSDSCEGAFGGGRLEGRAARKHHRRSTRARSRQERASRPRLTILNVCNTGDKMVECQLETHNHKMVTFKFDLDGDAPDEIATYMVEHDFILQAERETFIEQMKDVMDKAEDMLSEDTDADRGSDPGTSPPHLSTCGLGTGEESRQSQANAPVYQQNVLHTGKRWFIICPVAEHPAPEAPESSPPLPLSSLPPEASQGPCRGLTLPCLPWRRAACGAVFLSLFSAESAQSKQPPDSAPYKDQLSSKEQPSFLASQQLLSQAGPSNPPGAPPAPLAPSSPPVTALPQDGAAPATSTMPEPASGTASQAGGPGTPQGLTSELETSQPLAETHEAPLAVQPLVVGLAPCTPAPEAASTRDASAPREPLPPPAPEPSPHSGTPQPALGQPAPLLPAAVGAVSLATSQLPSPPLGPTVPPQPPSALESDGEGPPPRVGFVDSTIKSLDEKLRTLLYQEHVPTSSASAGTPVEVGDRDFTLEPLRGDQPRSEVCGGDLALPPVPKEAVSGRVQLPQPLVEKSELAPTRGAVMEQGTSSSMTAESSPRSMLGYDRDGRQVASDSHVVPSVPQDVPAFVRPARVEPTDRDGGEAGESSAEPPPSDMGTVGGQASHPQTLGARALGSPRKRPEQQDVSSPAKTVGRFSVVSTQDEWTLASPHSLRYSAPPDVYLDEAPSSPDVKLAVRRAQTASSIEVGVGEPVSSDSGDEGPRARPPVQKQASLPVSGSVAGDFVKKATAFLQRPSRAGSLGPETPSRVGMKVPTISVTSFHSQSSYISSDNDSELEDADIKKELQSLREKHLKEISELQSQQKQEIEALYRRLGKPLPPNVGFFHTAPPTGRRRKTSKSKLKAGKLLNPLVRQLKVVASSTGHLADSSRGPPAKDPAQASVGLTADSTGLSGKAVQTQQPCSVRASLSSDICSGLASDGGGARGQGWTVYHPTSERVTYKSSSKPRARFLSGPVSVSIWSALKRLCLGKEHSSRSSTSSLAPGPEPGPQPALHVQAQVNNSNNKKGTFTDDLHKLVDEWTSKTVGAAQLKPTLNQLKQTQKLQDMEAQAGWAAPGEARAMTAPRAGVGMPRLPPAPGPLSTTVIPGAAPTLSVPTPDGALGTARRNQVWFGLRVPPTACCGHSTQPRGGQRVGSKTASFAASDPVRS

Set 1 — technique: universal PBM; molecule type: double-stranded DNA, one strand shown; medium: in vitro; tested at: not given; reading: higher = stronger binding
Target: Sal-like protein 4, full length isoform B (SALL4, Homo sapiens, UniProt Q9UJQ4-2, residues 1-616)
Notes: 8-mer, flanks averaged, mean of replicates
Strand	E-score
AATACCTG	0.0767
ATGTCCCG	-0.0938
GGCCCTGA	-0.198
ACTTCACG	-0.082
ATGGTATG	0.13
CGGTTTTA	-0.0895
CGAGGGAC	-0.357
ATACTCTC	0.232

Set 2 — technique: DHFR PCA, dose-response; medium: yeast; notes: Hill fit, mean, not affinity; added: (+)-ABA, dose series; reading: lower = more sensitive
Target: ABI1, truncated, D143A, DHFR fusion (Arabidopsis thaliana, UniProt P49597)
Parent: PYL1, truncated, DHFR fusion (Arabidopsis thaliana, UniProt Q8VZS8); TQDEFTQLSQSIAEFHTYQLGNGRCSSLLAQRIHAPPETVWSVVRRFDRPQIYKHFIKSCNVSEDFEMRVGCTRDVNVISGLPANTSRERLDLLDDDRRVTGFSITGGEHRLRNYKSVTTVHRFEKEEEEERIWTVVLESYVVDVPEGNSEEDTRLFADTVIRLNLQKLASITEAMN
Substitution	ABA EC50
R88H	3.6 µM
P36R	4.09 µM
G102R	100 µM
E130V	2.97 µM
D159E	6.03 µM
L29E	460 µM
M68F	4.51 µM
I12T	50.3 µM

Set 3 — technique: protein binding microarray; molecule type: double-stranded DNA, one strand shown; medium: in vitro; tested at: not given; reference: not given; reading: higher = stronger binding
Target: Histone acetyltransferase KAT6A, winged helix 2, GST fusion (KAT6A, Homo sapiens, UniProt Q92794, residues 85-181)
Notes: 8-mer, flanks averaged, mean of 2 arrays, mostly near background
Residues (chain): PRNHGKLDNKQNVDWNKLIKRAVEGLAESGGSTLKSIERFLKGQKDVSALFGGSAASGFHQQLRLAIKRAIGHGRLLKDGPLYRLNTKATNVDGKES
Strand	E-score
CTAACGAG	-0.0133
AAGGTCAG	0.106
AACTTAAT	0.165
GCCCGACC	0.114
CGCAAGCC	0.182
GACTTCAC	-0.0593
ACAACCGA	0.0443
ACTTATAG	-0.194

Single results of other studies
SMILES	target	assay	conditions	endpoint	value
CO[C@H]1CC[C@H](CNc2ccc(S(=O)(=O)NC(=O)c3ccc(N4CCN(CC5=C(c6ccc(Cl)cc6)CC(C)(C)CC5)CC4)cc3Oc3cnc4[nH]ccc4c3)cc2[N+](=O)[O-])CC1	Serine/threonine-protein kinase WNK2 (WNK2, Homo sapiens, UniProt Q9Y3S1)	cell-free assay, competition with immobilised ligand	1 µM	remaining binding	76%

A few entries again (set 2):
Substitution	ABA EC50
P36R	4.09 µM
G102R	100 µM
